Results from different studies.
Parts stem from different laboratories: compare values within a part only.

Series 1
Target: RNA binding protein fox-1 homolog 2, RRM domain, GST-SBP tag (RBFOX2, Homo sapiens, UniProt O43251-10, residues 100-194)
Technique: RNA Bind-n-Seq
Form: RNA
Medium: in vitro
Tested at: 365 nM
Setting: natural RNA segment, single round, ends assumed
Reference: no-protein control
Direction: higher = stronger binding
Residues (chain): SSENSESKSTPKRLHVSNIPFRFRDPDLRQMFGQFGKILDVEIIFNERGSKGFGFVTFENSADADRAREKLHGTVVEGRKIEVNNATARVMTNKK
Strand | RBNS enrichment (R)
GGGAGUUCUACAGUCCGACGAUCGAAUGUCCCUUCCAUUUCUGAGAACAAGUCAGCCCCUUCUACCUGCCUCCACCCAGGAGACUGAUGCACAAGAUCUGUUUGUGAAAGCCUGAUUUAAAAAGAAAAAAAAAUGGAAUUCUCGGGUGCCAA | 0.339
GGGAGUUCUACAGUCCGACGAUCCAGCUACCACGGGUCUGCCAUGCUCUGGAGGAGCAAGGGGGCCACAUCCCCACCCCAGCUGUUACCCAGCCCGGGGCAGGUGCAGCCCUUCCUCCCUGUCUCUGCAUCUGUGGAAUUCUCGGGUGCCAA | 0.239
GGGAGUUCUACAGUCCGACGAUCUGCUUUUAAAAUAAGAUCUCUUUGUAGCCAUCCUGUUAAAUUUGUAAACAAUCUAAUUAAAUGGCAUCAGCACUUUAACCAAUGACGUUUGCAUAGAGAGAAAUGAUUGAUGGAAUUCUCGGGUGCCAA | 0.677
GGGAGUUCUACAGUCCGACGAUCAAGUCUGUGAGGGUGAAUGCUAAAGGCUGGGAAGGGAGUGGGCUAGCCAGCUCAUGGAACGUAGGCCGCAUACGCACAUCUUACCAGUAACCAGUGUGGUUGCCAGAGUGUGGAAUUCUCGGGUGCCAA | 0.26
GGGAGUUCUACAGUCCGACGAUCCAGAGGUAGGGCAGUGGGCUCUGCAGGCCACCUGGCUGGGGUUGGUGGGGGUCCUCUCUCCUGCCCCAGCUUCCACUCAGCCACCACAGUUGCCACACCAUGGGGUGGAGUGGAAUUCUCGGGUGCCAA | 0.231
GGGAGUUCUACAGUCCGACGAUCGCCUGUGCACACUUCACACACUGGGGCGGGACAUAGGCCGCAGGGACCCAGGGUCGCCUCAGGCAAAUGUGGUUGGUCGGUGGCUCCAAAGGCGAGAGGUUUUUCUUCCUUGGAAUUCUCGGGUGCCAA | 0.274
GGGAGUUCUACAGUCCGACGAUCCUUUAAUGGGAGAGUAAGAAAUGAGAAACAUAGAAAUCUAAGGCUGAAGCCAACACCAAAAGAGGGAGCACACCUGUUCCCUACCUCCUGGAAGUGGAGCCAAGUUUCAGUGGAAUUCUCGGGUGCCAA | 0.248
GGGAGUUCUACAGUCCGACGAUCCCUUUGCAGCUAGGGAAAGAGAAGAACACUAAGGAGAUGGAGAACUAAGGUCAGAGUAGCAGUCUCCAGUCUUACAUUUUGGUCUCUUUCCUCCUAUACUUCCUUGUUGCUGGAAUUCUCGGGUGCCAA | 0.583

Series 2
Target: Sox-I, HMG box (Salpingoeca helianthica)
Technique: Spec-seq
Form: double-stranded DNA, one strand shown
Medium: in vitro
Tested at: not given
Setting: whole probe, mean of replicates
Reference: not given
Direction: lower = stronger binding
All sequences stand within: GAGTCGTCTCGTCAGCAC … CCGTAGAGCACTCAGGTC
Target sequence (chain): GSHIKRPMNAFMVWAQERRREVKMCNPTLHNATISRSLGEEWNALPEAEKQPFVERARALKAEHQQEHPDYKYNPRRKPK
Strand | relative binding energy
AGGGGTT | 0.616 ln ratio
CATTGGA | 1.04 ln ratio
CATACTG | 0.272 ln ratio
CATTTTT | 0.603 ln ratio
CATTCAT | -0.392 ln ratio
CATTGTC | -2.04 ln ratio
CATCGCT | 0.574 ln ratio
TTAAGTT | 0.326 ln ratio
CATCATG | 0.527 ln ratio
AGGAGTT | 0.519 ln ratio
CATAATA | -0.851 ln ratio
CCAAGTT | 0.596 ln ratio
TTCCGTT | 0.801 ln ratio
TTCTGTT | -0.734 ln ratio
CATTAAG | 0.257 ln ratio
CATCGGA | 0.999 ln ratio
CATTGTG | -1.65 ln ratio
ACGCGTT | 0.248 ln ratio
CGCTGTT | -0.635 ln ratio
TCCCGTT | 0.591 ln ratio
CATCGAG | 0.955 ln ratio
GTTCGTT | 0.958 ln ratio
TATGGTT | 0.0682 ln ratio
CATGCGT | 1.21 ln ratio
CTGAGTT | 1.04 ln ratio

Series 3
Target: Ras GTPase-activating protein-binding protein 1, C-terminal RGG region (G3BP1, Homo sapiens, UniProt Q13283)
Sequence of UniProt Q13283 (whole entry, looked up): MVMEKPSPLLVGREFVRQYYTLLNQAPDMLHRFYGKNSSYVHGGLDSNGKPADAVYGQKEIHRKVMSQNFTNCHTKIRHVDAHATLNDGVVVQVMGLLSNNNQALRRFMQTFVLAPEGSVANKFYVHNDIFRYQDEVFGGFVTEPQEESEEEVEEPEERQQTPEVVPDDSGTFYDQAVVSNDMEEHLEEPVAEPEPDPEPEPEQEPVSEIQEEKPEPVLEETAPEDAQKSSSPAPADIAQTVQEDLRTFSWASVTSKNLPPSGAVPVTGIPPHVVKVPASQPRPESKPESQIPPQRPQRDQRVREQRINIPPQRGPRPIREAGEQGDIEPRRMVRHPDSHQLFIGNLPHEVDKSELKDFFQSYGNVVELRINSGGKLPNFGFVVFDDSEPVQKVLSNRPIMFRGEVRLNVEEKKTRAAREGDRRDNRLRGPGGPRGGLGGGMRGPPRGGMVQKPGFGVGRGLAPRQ
Technique: RNA Bind-n-Seq
Form: RNA
Medium: in vitro
Tested at: 1 µM
Setting: whole 134-nt RNA, ends assumed
Together with: 150 mM KCl
Reference: input library
Direction: higher = stronger binding
Strand | log2 enrichment
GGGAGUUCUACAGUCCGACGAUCCUGUGCUACACAUCGUAUGUACCGAAUCGGGAAAAAAAGGGAAAAAAAGGGGAAAAAAAGGAAAGUAUUAUGUUACGCCGUUCGGAUCUGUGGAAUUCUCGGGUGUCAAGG | -1.15
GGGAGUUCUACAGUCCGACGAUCGAUUCCCUCCACAUGCUGCACGCGCAUCUCGCCCCCAGGGGCACUGCCUGGAAGAUUCAGGAGCCUGGGCGGCCUUCGCUUACUCUCACCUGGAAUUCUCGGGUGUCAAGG | 0.102
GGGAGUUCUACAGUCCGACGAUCCACAGACAACACGCACCCACACAGACACAGAGGGAAGGGGUUGGGAUGGGGACAGGGCGCACAGCAGGGCGGGGUAGGACCCCAGCCCCUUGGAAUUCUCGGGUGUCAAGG | -0.262
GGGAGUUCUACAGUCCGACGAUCUCAAGUCCUGUGCUACACAUCGUAUGUACCGAAUCGGGUGGGAGGGUUUUUGGGAAAGUAUUAUGUUACGCCGUUCGGAUCUGCACUUCCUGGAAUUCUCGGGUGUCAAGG | 1.59
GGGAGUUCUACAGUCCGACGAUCCCUGUGCUACACAUCGUAUGUACCGAAUCGGCCCCCCGGGGCCCCCCGGGGCCCCCCGGGAAAGUAUUAUGUUACGCCGUUCGGAUCUGCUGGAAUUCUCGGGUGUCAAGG | -2.34
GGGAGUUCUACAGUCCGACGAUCUCCUGUGCUACACAUCGUAUGUACCGAAUCGGGAAAAAAAGGGAAAAAAAGGGUUUGGGAAAGUAUUAUGUUACGCCGUUCGGAUCUGCAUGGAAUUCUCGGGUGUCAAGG | -0.809
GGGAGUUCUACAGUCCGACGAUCGUCCUGUGCUACACAUCGUAUGUACCGAAUCAAACCCCCAAACCCAAAUUUUUUUAAAAAAGUAUUAUGUUACGCCGUUCGGAUCUGCACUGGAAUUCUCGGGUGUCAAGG | -0.77
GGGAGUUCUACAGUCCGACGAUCUAACUUUAGAGGAGGAUCUGAUGGAUAUGGCAGUGGACGUGGAUUUGGGGAUGGCUAUAAUCGGUAUGGAGGAGGACCUGGAGGUGGCAAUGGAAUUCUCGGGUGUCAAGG | -0.6
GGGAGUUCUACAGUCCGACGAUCCAAGUCCUGUGCUACACAUCGUAUGUACCGAAUCGGAAAAAGGUUUUUGGAAAGGAAAGUAUUAUGUUACGCCGUUCGGAUCUGCACUUCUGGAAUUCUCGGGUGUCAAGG | -1.94

Series 4
Target: RING finger protein unkempt homolog, zinc fingers 1-6, GST-SBP tag (UNK, Homo sapiens, UniProt Q9C0B0, residues 30-357)
Sequence of UniProt Q9C0B0 (30-357, looked up): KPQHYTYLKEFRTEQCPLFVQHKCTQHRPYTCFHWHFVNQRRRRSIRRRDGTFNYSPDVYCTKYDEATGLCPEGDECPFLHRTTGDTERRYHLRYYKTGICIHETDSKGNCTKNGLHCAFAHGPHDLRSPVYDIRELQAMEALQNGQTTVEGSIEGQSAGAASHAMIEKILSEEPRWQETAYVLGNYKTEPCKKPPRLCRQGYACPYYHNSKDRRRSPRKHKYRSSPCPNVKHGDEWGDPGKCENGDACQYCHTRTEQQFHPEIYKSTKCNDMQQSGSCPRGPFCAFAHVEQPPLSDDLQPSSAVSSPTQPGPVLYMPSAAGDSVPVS
Technique: RNA Bind-n-Seq
Form: RNA
Medium: in vitro
Tested at: not given
Setting: RNA with constant flanks, human and mouse sites, ends assumed
Reference: input RNA pool
Direction: higher = stronger binding
Strand | bound/input enrichment
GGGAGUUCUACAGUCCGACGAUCUCGUCGCUGAUGCUUGCUCUGUCAAGGCACAGCCUAUUGUCUCCUUUGCUCAGUGUGACAUCAUUCAGACGCUUCUACAGAGGUGACAGCCCAACAGAUUCCCAAAAGGACAUGAUUGAACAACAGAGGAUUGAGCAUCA | 0.129 ratio
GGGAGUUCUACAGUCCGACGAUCCUCUCCGGUCUCCAGAGCCCUAGCGCAGGAUGUUCGUGCUGGUGGAGAUGGUGGACACCGUGCGCAUACCCCCGUGGCAGUUUGAGCGGAAACUCAACGAUUCCAUUGCUGAGGAGCUGACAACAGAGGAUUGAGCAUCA | 0.0939 ratio
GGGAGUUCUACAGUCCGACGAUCUGAUAAAGCCUUGACUAUGCAUGCUGCUUUCAUUUUGAUAAACUUUUUAUUUUUUAACUAUAGCUUUAUUAGCAAUUCCCAAAUGCUGCAAUUUGCUGAUUUCUUCACACAGACAGCUGGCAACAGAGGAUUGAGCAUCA | 5.65 ratio
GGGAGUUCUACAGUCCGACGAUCAUUGCUAUGGGAUUUCCUGCAGAAAGACUUGAAGGCGUAUACAGGAACAAUAUUGAUGAUGUAGUAAGGUUUUUGGAUUCAAAGCAUAAAAACCAUUACAAGAUAUACAAUCUUUGUGCUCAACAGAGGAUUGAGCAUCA | 0.498 ratio
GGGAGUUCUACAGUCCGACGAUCCUGAAGGAAACAGCAUUUAAAUUUAAAGCCCUGAAGAAGGUUGCACAGUUGGCAGUUAUAAAUAGCCUAGAAAAGGCUUUUUGGAACUGGGUAGAAAAUUAUCCGGAUGAAUUUACAAAGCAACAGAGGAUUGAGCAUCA | 0.34 ratio
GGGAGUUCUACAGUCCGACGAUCGAUUACCUGAGGUGGGUGAGCAUCAGUGGGUUCUUGGAUGACUGUUUCCUGACGAUUCUUUUCAUGCUGUACUAUGGAGUAUAUGAAGGGGACUUCACACUUCAUCUGGUACUGCCACUGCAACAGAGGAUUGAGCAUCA | 0.0843 ratio
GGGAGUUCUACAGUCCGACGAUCUUCAAAGAAAGUGACCUGUCUCAUGUCCAGAACAAAAGUGCAUUUUUAUGUGGAGUUAUGAAGACCUACAGGCAAAGAGAGAAACAAGGCAGCAAGGUACAAGAGUCCACGAAAGGGCCCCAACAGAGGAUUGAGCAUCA | 0.254 ratio
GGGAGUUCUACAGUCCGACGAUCCGGAGGUAAACCCUGCACGCACAUCGUGCUUCGGCGUGUCAGGUAUUUGAAUUUAGAGUUUAGUUUCCCAUAACAUUUUCUACAAGAAGAAUCUUGGUAGUGUCUCAAAGACAUCACUGACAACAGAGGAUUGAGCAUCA | 0.921 ratio

A few entries again (series 2):
Strand | relative binding energy
CATTCAT | -0.392 ln ratio
CATTGTC | -2.04 ln ratio
CATCGCT | 0.574 ln ratio
TTAAGTT | 0.326 ln ratio
CATCATG | 0.527 ln ratio
AGGAGTT | 0.519 ln ratio
CATAATA | -0.851 ln ratio
CCAAGTT | 0.596 ln ratio
